# Assay results from different studies.
# Protocols differ between the studies behind these lines. Values joined by “and” are separate records of one study, mostly repeats; a detail may differ. Numbers after ± are the reported error.
Compound,assay,test system,conditions,scale,quantity,value
Cc1c(OCC(F)(F)F)ccnc1C[S+]([O-])c1nc2ccccc2[nH]1 (stereo not drawn),,"human, plasma","oral, dose not given, median",,"CL, body weight adjusted",3.33 mL/min/kg
CS(=O)(=O)c1ccc([C@@H](O)[C@@H](CF)NC(=O)C(Cl)Cl)cc1,,"Arbor Acres chickens, plasma","oral, 20 mg/kg, with: quercetin 60 mg/kg pretreatment",,MRT(0-inf),3.78 ± 0.32 h
FC(F)(F)c1ccc(CNc2ccc(Cc3c[nH]c4ncc(Cl)cc34)cn2)cn1,item: mucosal inflammation,"human, advanced solid tumours, non-TGCT cohort","oral, 1000 mg/day, grade 3 or higher",,treatment-related adverse events,0%
CNC(=O)c1ccc(-c2cnc3ncc(Cc4ccc5ncccc5c4)n3n2)cc1F,,Japanese patients,"oral, 400 mg, grade 3/4",,AST increased dose reduction/interruption,2%
CCN(CC)Cc1ccc(CNC(=O)c2csc3nc[nH]c(=O)c23)cc1,haemolysis,human red blood cells,"1 h, 37 °C",,EC50,> 100 µM
C=CCN1CC(=O)N2[C@@H](Cc3ccc(O)cc3F)C(=O)N(Cc3cccc(N4CC(N5CCN(CC)CC5)C4)n3)C[C@@H]2N1C(=O)NCc1ccccc1,,advanced solid tumour patients,"oral, 20 mg twice daily, grade ≥3, dose-escalation",,treatment-related AST increased,0%
O=C(Nc1nc2cccc(-c3ccc(CN4CCS(=O)(=O)CC4)cc3)n2n1)C1CC1,item: blood calcium increased,rheumatoid arthritis patients,"oral, 150 mg once daily, 4 weeks, any relatedness",,treatment-emergent adverse events,0%
CC[C@H](C)[C@H](NC(=O)[C@H](Cc1ccccc1)NC(=O)[C@H](CCC(=O)O)NC(=O)[C@H](CCCCNC(=O)COCCOCCNC(=O)COCCOCCNC(=O)CC[C@H](NC(=O)CCCCCCCCCCCCCCCCC(=O)O)C(=O)O)NC(=O)[C@H](C)NC(=O)[C@H](C)NC(=O)[C@H](CCC(N)=O)NC(=O)CNC(=O)[C@H](CCC(=O)O)NC(=O)[C@H](CC(C)C)NC(=O)[C@H](Cc1ccc(O)cc1)NC(=O)[C@H](CO)NC(=O)[C@H](CO)NC(=O)[C@@H](NC(=O)[C@H](CC(=O)O)NC(=O)[C@H](CO)NC(=O)[C@@H](NC(=O)[C@H](Cc1ccccc1)NC(=O)[C@@H](NC(=O)CNC(=O)[C@H](CCC(=O)O)NC(=O)C(C)(C)NC(=O)[C@@H](N)Cc1cnc[nH]1)[C@@H](C)O)[C@@H](C)O)C(C)C)C(=O)N[C@@H](C)C(=O)N[C@@H](Cc1c[nH]c2ccccc12)C(=O)N[C@@H](CC(C)C)C(=O)N[C@H](C(=O)N[C@@H](CCCNC(=N)N)C(=O)NCC(=O)N[C@@H](CCCNC(=N)N)C(=O)NCC(=O)O)C(C)C,12-lead Holter ECG,healthy humans,"subcutaneous, 1.5 mg once weekly, 18 h, steady state",baseline: placebo,QT change from baseline,-22.3 ms
COc1cc(C2=CCCc3c2ccc(OC)c3OC(C)(C)c2ccc([N+](=O)[O-])s2)cc(OC)c1OC,"non-enzymatic, no POR",phosphate buffer,"24 h, pH 7.4",,parent drug release,1.9%
CN(C(=O)n1cnc(-c2cccnc2)c1)[C@H]1CC[C@H](O)CC1,,"Wistar rat, midbrain","oral, 10 mg/kg/day of BIA 10-2474, 48 h, repeated 5 days",,concentration,17.2 ± 0.9 ng/g
N#Cc1ccc2c(c1)[C@H]1CCCN(C(=O)c3ccc4[nH]cnc4c3)[C@H]1C2,,human males,"160 mg, end of trial",,SHBG level,31.7 nmol/L
COc1ccc([C@@H](O)c2cc(-c3ncnc4cc(N5CCOCC5)ccc34)c(F)cc2Cl)nn1,,locally advanced rectal cancer patients,"100 mg, with: capecitabine and radiotherapy",,drug-related nausea incidence,33%
CNC(=O)c1ccc(-c2cnc3ncc(Cc4ccc5ncccc5c4)n3n2)cc1F,"CTCAE v4.0, any causality",human cancer patients,"oral, 600 mg twice daily, expansion, other tumours, RP2D",,peripheral edema incidence (all grades),28%
CC[C@@H]([C@H](C)O)n1ncn(-c2ccc(N3CCN(c4ccc(OC[C@@H]5CO[C@@](Cn6cncn6)(c6ccc(F)cc6F)C5)cc4)CC3)cc2)c1=O,,"Sprague-Dawley rats, plasma","oral, 40 mg/kg, with: zanubrutinib 16 mg/kg",,MRT(0-t),12.6 ± 0.69 h
Cc1cc(-c2nccc3c2ccn3CC(=O)Nc2ccc(-c3cnccn3)cn2)ccn1,,human,"SAD part, single 40 mg dose",,subjects with Dizziness TEAEs,16.7%
CC#CC(=O)N[C@H]1CCCN(c2c(F)cc(C(N)=O)c3[nH]c(C)c(C)c23)C1,,healthy volunteers,"oral, 30 mg single dose, SAD phase I",,adverse events,33.3%
O=c1c2ccccc2oc2ccccc12,,tricaprin-tricaprylin mixture,"45 °C, tricaprin fraction 0.77",,solubility,0.0527 mole fraction
Cc1ccc(C(=O)N(CCCN)C(c2nc3snc(C)c3c(=O)n2Cc2ccccc2)C(C)C)cc1 (stereo not drawn),stomatitis grade ≥3 (CTCAE),human patients,"intravenous, 4 mg/day",,patients with adverse event,0%
O=C1C[C@@H](c2ccc(O)cc2)Oc2cc(O[C@@H]3O[C@H](C(=O)O)[C@@H](O)[C@H](O)[C@H]3O)cc(O)c21,,human CSF,"concentration not given, mean",,CSF concentration,not detected
CN1CCN(c2cccc3c2CCN(C(=O)/C=C/c2c(-n4cnnn4)ccc(Cl)c2F)[C@@H]3C(=O)Nc2ccc(C(=O)O)cc2)C(=O)C1,,healthy human subjects,"intravenous infusion, 25 mg/h, 2 h",,subjects with nausea,0%
CCc1c(-c2ccccc2)c(-c2ccccc2)nn1-c1ccccc1-c1cccc(OCC(=O)O)c1,,"Sprague-Dawley rat, -Brain","oral, 10 mg/kg, 4 h",,tissue concentration,58.6 ng/g and 116 ng/g
CNc1ccc(-c2nc3ccc(O)cc3s2)cc1 [carbon-11 labelled],ex vivo biodistribution,"normal B6SJL mice, brain stem","intravenous, 30 min",,uptake,0.241 ± 0.05 SUV
O=C1NCCc2nc(OCc3cccc(F)c3)ccc21,item: Piloerection,"Sprague-Dawley rat, male","oral, 100 mg/kg, 1 h, score 0 none to 2 full",direction not given,Irwin test score,0
CC(C)NCC(O)COc1cccc2ccccc12 (stereo not drawn),,"male Hartley guinea pigs, anaesthetized","intravenous, 3 mg/kg group, baseline before infusion",,heart rate,217 ± 0.4 beats/min
CCN1/C(=C/C(C)=O)Sc2ccc(F)cc21,,cynomolgus monkey,"oral, 10 mg/kg, 0.5 h post-dose",baseline: pre-dose,heart rate change,117 ± 13.2%
CCc1cc(C(=O)NC)c2nccc(N3CCc4c(cc(Cn5ccnc5)cc4-c4cn(C)nc4C(F)(F)F)C3=O)c2c1,,Sprague Dawley rats,"oral, 50 mg/kg once daily, 7 days",,serum TBIL level,2.4 ± 0.37 µmol/L
COc1cc(N)c(Cl)cc1C(=O)NC1CCN(CCCOc2ccc(F)cc2)CC1OC (stereo not drawn),,"male Hartley guinea pigs, anaesthetized","intravenous, 0.1 mg/kg over 10 min, after infusion",,heart rate,228 ± 0.9 beats/min
COc1cc2nccc(Oc3ccc(NC(=O)c4cc5c(n(-c6ccccc6)c4=O)CCCC5=O)nc3)c2cc1OC,,patients with relapsed/refractory AML,"oral, 10 mg once daily",,TEAEs leading to discontinuation,14.3%
O=C(/C=C/c1ccc(O)c(O)c1)O[C@H]1[C@H](O)C[C@](O)(C(=O)O)C[C@H]1O,,human CSF,"concentration not given, mean",,CSF concentration,not detected
OCc1nc2ccc(NCc3ccc(C(F)(F)F)cc3)cc2[nH]1,,"Balb/c mice, male, plasma","intravenous, 1 mg/kg",,terminal elimination rate constant,3.61e-05 ± 2.78e-05 s⁻¹
Cc1ccc([C@@H]2O[C@H](CO)[C@@H](O)[C@H](O)[C@H]2O)cc1Cc1ccc(-c2ccc(F)cc2)s1,,Japanese type 2 diabetes patients,"200 mg, day 3, 24 h urine collection",baseline: baseline,urinary sodium excretion change,15.6 mEq
CC[C@H](C)[C@H](NC(=O)[C@H](Cc1ccccc1)NC(=O)[C@H](CCC(=O)O)NC(=O)[C@H](CCCCNC(=O)COCCOCCNC(=O)COCCOCCNC(=O)CC[C@H](NC(=O)CCCCCCCCCCCCCCCCC(=O)O)C(=O)O)NC(=O)[C@H](C)NC(=O)[C@H](C)NC(=O)[C@H](CCC(N)=O)NC(=O)CNC(=O)[C@H](CCC(=O)O)NC(=O)[C@H](CC(C)C)NC(=O)[C@H](Cc1ccc(O)cc1)NC(=O)[C@H](CO)NC(=O)[C@H](CO)NC(=O)[C@@H](NC(=O)[C@H](CC(=O)O)NC(=O)[C@H](CO)NC(=O)[C@@H](NC(=O)[C@H](Cc1ccccc1)NC(=O)[C@@H](NC(=O)CNC(=O)[C@H](CCC(=O)O)NC(=O)C(C)(C)NC(=O)[C@@H](N)Cc1cnc[nH]1)[C@@H](C)O)[C@@H](C)O)C(C)C)C(=O)N[C@@H](C)C(=O)N[C@@H](Cc1c[nH]c2ccccc12)C(=O)N[C@@H](CC(C)C)C(=O)N[C@H](C(=O)N[C@@H](CCCNC(=N)N)C(=O)NCC(=O)N[C@@H](CCCNC(=N)N)C(=O)NCC(=O)O)C(C)C,,"human, type 2 diabetes","dose not given, back pain, during treatment",baseline: subjects,incidence of adverse events,13.3%
COc1ncc(-c2nc3c(n2C(C)C)[C@H](c2ccc(Cl)cc2)N(c2cc(Cl)cn(C)c2=O)C3=O)c(OC)n1,LC-MS/MS,"human, plasma","oral, 4 mg, cycle 1 day 14, low-dose arm",,AUC(0-last),155 ng·h/mL
COc1cc(Nc2ncc3c(n2)-c2ccc(Cl)cc2C(c2c(F)cccc2OC)=NC3)ccc1C(=O)O,,patients,"oral, dose not given, grade 2, any attribution, with: pembrolizumab",,anaemia incidence,42%
C[C@@H]1CCO[C@H]2Cn3cc(C(=O)NCc4ccc(F)cc4F)c(=O)c(O)c3C(=O)N12,,"human paediatric patients, weight sample D to under sample E kg, plasma","oral, 50 mg film-coated tablet, 24 h, steady state, geometric mean, population PK post-hoc, N 17",,trough concentration (C24),828 ng/mL
CO[C@H]1/C=C/O[C@@]2(C)Oc3c(C)c(O)c4c(O)c(c(/C=N/N5CCN(C)CC5)c(O)c4c3C2=O)NC(=O)/C(C)=C\C=C\[C@H](C)[C@H](O)[C@@H](C)[C@@H](O)[C@@H](C)[C@H](OC(C)=O)[C@@H]1C,,healthy human volunteers,"oral, 600 mg, itraconazole cohort, with: gepotidacin 1500 mg",,incidence of nervous system disorders,6%
O=C(O)[C@H]1O[C@@H](Oc2c(-c3ccc(O)cc3)oc3cc(O)cc(O)c3c2=O)[C@H](O)[C@@H](O)[C@@H]1O,,human CSF,"concentration not given, mean",,CSF concentration,not detected
CC(=O)Oc1ccccc1C(=O)O,,"male Hartley guinea pigs, anaesthetized","intravenous, 1 mg/kg over 10 min, after infusion",,heart rate,243 ± 0.2 beats/min
C[C@@H](Nc1cc(F)cc(F)c1)c1cc(C(=O)N(C)C)cc2c(=O)cc(N3CCOCC3)oc12,item: Neutropenia,advanced solid tumour patients,"oral, dose not given, dose expansion",,related serious adverse events,0%
CC1(C)S[C@@H]2[C@H](NC(=O)[C@H](N)c3ccc(O)cc3)C(=O)N2[C@H]1C(=O)O,,"male Hartley guinea pigs, anaesthetized","intravenous, 20 mg/kg group, baseline before infusion",,heart rate,202 ± 0.4 beats/min
CCOc1c([C@H](C)n2nc(C)c3c(N)ncnc32)cc(Cl)c(F)c1[C@@H]1CNC(=O)C1,ECG,previously treated B-cell malignancy patients,"oral, 5 mg once daily, baseline QTcF ≤450 ms",,observations QTcF >480 ≤500 ms,0%
O=C(COc1ccc(Cl)cc1)NC12CC(c3nnc([C@H]4C[C@@H](OC(F)(F)F)C4)o3)(C1)C2,item: Myalgia,human,"oral, 100 mg once daily, 14 days",,adverse event incidence,14.3%
C[C@@H](Oc1ccc(S(C)(=O)=O)cc1C(=O)N1C[C@@H]2C[C@]2(c2cc(C(F)(F)F)on2)C1)C(F)(F)F,,"young humans, plasma","oral, 75 mg once daily, single dose, geometric mean",,Vz/F,426 L
Cc1ccc(Sc2ccccc2N2CCNCC2)c(C)c1,item: eosinophil count increased,healthy adult women,"oral, 5 mg daily, 12 days",,participants with TEAE,0%
CNC(=O)c1cc(Oc2ccc(NC(=O)Nc3cc(C(C)(C)C)nn3-c3ccc4ncccc4c3)c(F)c2)ccn1,"item: any AESI, worst grade ≥2",human patients,"oral, dose not given, high AUC(0-4 h) subgroup, cycles 1-2",,patients with adverse events,22%
